Measurements from different studies.
A part holds a random share of what one study measured. Changes are numbered by the printed parent chain.

Set 1 — technique: universal PBM; molecule type: double-stranded DNA, one strand shown; sample: in vitro; tested at: 600 nM; reading: higher = stronger binding
Target: Sal-like protein 4, full length isoform A (SALL4, Homo sapiens, UniProt Q9UJQ4, residues 1-1053)
UniProt Q9UJQ4, sequence (whole entry, looked up): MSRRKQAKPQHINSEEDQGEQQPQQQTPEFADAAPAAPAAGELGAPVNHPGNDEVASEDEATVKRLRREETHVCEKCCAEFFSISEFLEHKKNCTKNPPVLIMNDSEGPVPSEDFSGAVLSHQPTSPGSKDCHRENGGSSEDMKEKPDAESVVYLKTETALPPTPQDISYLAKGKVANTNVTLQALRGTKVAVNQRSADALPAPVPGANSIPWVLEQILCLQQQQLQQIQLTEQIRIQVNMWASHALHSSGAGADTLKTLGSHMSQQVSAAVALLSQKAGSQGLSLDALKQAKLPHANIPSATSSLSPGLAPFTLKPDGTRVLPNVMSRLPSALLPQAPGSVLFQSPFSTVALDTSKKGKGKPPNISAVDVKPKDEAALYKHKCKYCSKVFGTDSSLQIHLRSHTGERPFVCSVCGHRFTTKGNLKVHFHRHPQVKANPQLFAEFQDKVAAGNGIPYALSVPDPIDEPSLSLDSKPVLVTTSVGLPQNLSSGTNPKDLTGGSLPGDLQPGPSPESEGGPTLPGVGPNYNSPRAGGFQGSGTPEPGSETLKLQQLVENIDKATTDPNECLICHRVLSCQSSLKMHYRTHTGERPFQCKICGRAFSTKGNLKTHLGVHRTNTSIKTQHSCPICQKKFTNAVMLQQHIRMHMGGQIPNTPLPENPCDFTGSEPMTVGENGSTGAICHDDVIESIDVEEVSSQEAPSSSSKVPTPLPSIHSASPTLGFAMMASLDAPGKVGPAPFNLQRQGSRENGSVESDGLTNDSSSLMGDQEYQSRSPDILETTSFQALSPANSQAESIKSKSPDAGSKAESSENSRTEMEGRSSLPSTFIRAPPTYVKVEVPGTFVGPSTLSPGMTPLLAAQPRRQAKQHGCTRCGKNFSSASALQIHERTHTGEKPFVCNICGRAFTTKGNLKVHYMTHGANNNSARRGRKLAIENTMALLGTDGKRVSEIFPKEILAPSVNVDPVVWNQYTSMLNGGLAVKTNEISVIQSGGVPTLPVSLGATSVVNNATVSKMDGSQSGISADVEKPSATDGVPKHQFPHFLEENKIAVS
Notes: 8-mer, flanks averaged, mean of replicates
The E-score of `AAAAAAGG` is reported as 0.0531.
`AATTGACT` gave an E-score of 0.107.
For `CTCGCGAA`, the E-score was -0.0683.
The E-score of `TATGATCA` is reported as 0.297.
The E-score of `ATGAGAAT` is reported as 0.187.
For `CAAGATGA`, the E-score was -0.0301.
With `CGCGGATC` the E-score was -0.35.
`AACCTATT` gave an E-score of 0.0948.
With `CAGTCCGG` the E-score was -0.336.
With `GTGCGAAC` the E-score was -0.237.
With `CGGTATCC` the E-score was -0.137.
For `ATCTTGAC`, the E-score was 0.00142.
`CACCCAAG` gave an E-score of -0.172.
The E-score of `CCTTATTA` is reported as 0.33.
`ATAGGGCC` has an E-score of -0.217.
`CTATTATC` gave an E-score of 0.334.
`ATCCGCTC` gave an E-score of -0.311.
For `CAAGATAG`, the E-score was -0.0131.
With `AAAATACC` the E-score was 0.183.
With `AAAAGATG` the E-score was 0.177.
`GGACTTAC` gave an E-score of -0.0436.
`CCAAGAAC` gave an E-score of -0.162.
`CTCCTTAA` gave an E-score of 0.0215.
`CCTGATAA` has an E-score of 0.141.
With `CTCGTATA` the E-score was 0.103.

Set 2 — target: CCNE2, cyclin fold, Cln2 fusion (human); technique: yeast growth competition, sequencing; sample: yeast; notes: weak parent motif; relative to: not given; reading: higher = stronger binding
Parent: PKMYT1 docking peptide (human); SFEPRNLLSLFED; partner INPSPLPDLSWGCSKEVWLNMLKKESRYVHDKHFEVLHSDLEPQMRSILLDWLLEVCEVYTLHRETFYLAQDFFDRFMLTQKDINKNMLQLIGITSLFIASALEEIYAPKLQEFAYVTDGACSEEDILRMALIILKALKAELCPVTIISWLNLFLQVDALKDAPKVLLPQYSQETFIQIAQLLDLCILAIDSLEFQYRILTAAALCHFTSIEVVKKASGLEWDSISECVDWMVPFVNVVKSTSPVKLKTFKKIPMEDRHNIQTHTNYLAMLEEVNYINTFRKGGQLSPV
For `S1R`, “normalised enrichment score” read 0.405.
`F2E` — result for “normalised enrichment score”: -1.04.
For `S9F`, “normalised enrichment score” read 0.575.
For `N6S`, “normalised enrichment score” read 0.375.
Under “normalised enrichment score”, `L7N` is recorded as -0.579.
`D13S`: “normalised enrichment score” 0.711.
For `P4V`, “normalised enrichment score” read -0.551.
Under “normalised enrichment score”, `R5A` is recorded as -0.0923.
`L10C`: “normalised enrichment score” 0.171.
Under “normalised enrichment score”, `N6K` is recorded as 0.0794.
Under “normalised enrichment score”, `N6A` is recorded as -0.0637.
`S9D` — result for “normalised enrichment score”: 0.0399.
`R5I` — result for “normalised enrichment score”: 0.508.

Set 3 — technique: DHFR PCA, deep sequencing; sample: yeast; together with: (+)-ABA 2500 µM; relative to: wild-type fitted maximum; reading: higher = stronger binding
Target: ABI1, truncated, D143A, DHFR fusion (Arabidopsis thaliana)
Notes: methotrexate growth selection, single substitutions
Parent: PYL1, truncated, DHFR fusion (Arabidopsis thaliana); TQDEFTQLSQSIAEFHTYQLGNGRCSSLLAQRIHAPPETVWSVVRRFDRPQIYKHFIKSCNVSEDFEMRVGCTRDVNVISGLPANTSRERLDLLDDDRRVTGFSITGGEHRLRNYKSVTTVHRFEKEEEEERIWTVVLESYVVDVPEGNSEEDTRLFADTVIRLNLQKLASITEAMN; partner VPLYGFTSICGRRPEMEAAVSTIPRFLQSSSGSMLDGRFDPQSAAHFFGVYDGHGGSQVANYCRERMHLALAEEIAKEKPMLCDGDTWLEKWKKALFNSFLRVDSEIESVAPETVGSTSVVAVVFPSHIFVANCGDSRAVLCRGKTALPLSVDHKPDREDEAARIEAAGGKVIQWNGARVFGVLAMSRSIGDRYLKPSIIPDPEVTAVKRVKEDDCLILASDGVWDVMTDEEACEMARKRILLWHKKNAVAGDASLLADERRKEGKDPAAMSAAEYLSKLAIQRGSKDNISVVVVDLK
`N77W` — result for “relative binding score”: 94.7%.
`R88L`: “relative binding score” 100%.
For `I57S`, “relative binding score” read 57.8%.
`R163V` — result for “relative binding score”: 69.9%.
`R132I` — result for “relative binding score”: 109%.
`L112C`: “relative binding score” 96.7%.
`E125H`: “relative binding score” 98.9%.
Under “relative binding score”, `F5A` is recorded as 102%.
Under “relative binding score”, `G102C` is recorded as 84.1%.
`H55T` — result for “relative binding score”: 103%.
`M68P`: “relative binding score” 90.1%.
`M68K` — result for “relative binding score”: 84.6%.
For `P50D`, “relative binding score” read 8.39%.
`V100G`: “relative binding score” 76.7%.
Under “relative binding score”, `R111A` is recorded as 83%.
Under “relative binding score”, `F15C` is recorded as 87.6%.
For `L93S`, “relative binding score” read 103%.
Under “relative binding score”, `Q10K` is recorded as 110%.

Set 4 — technique: RNA Bind-n-Seq; molecule type: RNA; sample: in vitro; tested at: 365 nM; relative to: no-protein control; reading: higher = stronger binding
Target: RNA binding protein fox-1 homolog 2, RRM domain, GST-SBP tag (RBFOX2, Homo sapiens, UniProt O43251-10, residues 100-194)
Notes: natural RNA segment, single round, ends assumed
Construct (chain): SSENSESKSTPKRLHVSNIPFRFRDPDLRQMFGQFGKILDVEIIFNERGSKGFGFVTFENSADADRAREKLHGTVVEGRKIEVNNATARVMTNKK
`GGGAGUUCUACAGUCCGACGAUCGGUUGACCAGUAUUACUAUACAAUGUAAGUGUUUUAAAAAAUACGAAAGUAAUACUCUGCACCCCUUCCUACAAAGAUGAUAAAGCAGUCACUUCUGGCGCAUUUUAAUAUGGAAUUCUCGGGUGCCAA`: “RBNS enrichment (R)” 0.351.
`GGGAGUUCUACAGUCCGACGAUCUCUCAUGAAUUAGAGAGUUCAUCUUCUGAGGUCAAUAAAGAAGAGGCAAAAACACAGUUCCUUACUUUGCAUUUAGUAAAAACAAGAAAAAGUGUUAGUGAGGGUUAAGCUGGAAUUCUCGGGUGCCAA` — result for “RBNS enrichment (R)”: 1.7.
`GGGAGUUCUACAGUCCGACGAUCGGGAGACAGAUGGCCCUAACUACUCAGUGACAGAGGCAGUUACUGUGAGAGACUUGUAGGAAUUUUUUUCUUCUCCUAGCGAAGUCAAAGCUCUCUCUGAAUGUACUGUGUGGAAUUCUCGGGUGCCAA`: “RBNS enrichment (R)” 0.627.
`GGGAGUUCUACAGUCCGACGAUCAACAAUAAAGUUGGCUAGACCUUGUUUGGGGAAUUUUACAAAUUUUAUAAACUAUCUGUAGCAAUUAGGGUUUUUAUUUUACAUUAAAAAUGUAAACUGCUCCCCCUCUCUGGAAUUCUCGGGUGCCAA`: “RBNS enrichment (R)” 0.345.
Under “RBNS enrichment (R)”, `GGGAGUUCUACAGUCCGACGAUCAAAAAUAUGCAUUUCACCCCACAUGACUAGGAAUCCACAUCAGAAUGAUACAGAGUUAGCAGGUUUUUCUAAGGAAAUGCCAUUCAAAUGCCUCCUAACUUUUAUAGUUAUGGAAUUCUCGGGUGCCAA` is recorded as 3.81.
Under “RBNS enrichment (R)”, `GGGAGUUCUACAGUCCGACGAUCCCUCUGUGUAGGGCUGUUUUCCAGGAAUUAGGAAGAAAACCCAAAGAAAAUAUUGCACAAAGGUUUCCCUCAGGAAACCUAGUGCAGAUAGCCAUGGAAGCAUAGCCACUUGGAAUUCUCGGGUGCCAA` is recorded as 0.286.
Under “RBNS enrichment (R)”, `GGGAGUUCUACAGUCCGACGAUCCAGCUCUGGCCAAGAGUGGGACAGGGUUUUAACCACAAAUAGGAGCAGCAUGCAAUUCCUAGUGACUUGCUGCACAGUAUUGUAUCAUAAUUACAGGAAGUUUUUAUUUUUGGAAUUCUCGGGUGCCAA` is recorded as 1.76.
`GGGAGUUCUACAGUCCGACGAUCAAAUUUCUUUUUACUUUUGUGGAGCAUUAGAGUCACAGUUUACCUUAUUGAUAUUGGUCUGAUGGUUUGUGAACUCUUGCUGGGAAUCAAAAUUUCCUUGAGACUCUUUAUGGAAUUCUCGGGUGCCAA` — result for “RBNS enrichment (R)”: 0.592.

Mixed results — technique: cross-linking MS
`TADA1 (Homo sapiens, UniProt Q96BN2)`: cross-linked residues “K108 to K24” (TAF9B (Homo sapiens, UniProt Q9HBM6); cell fractions; together with: DSSO).
`MTA1 (Homo sapiens, UniProt Q13330)`: interaction screen “cross-linked” (RBBP7 (Homo sapiens, UniProt Q16576); hits only).
Under interaction screen, `SURF6 (Homo sapiens, UniProt O75683)` is recorded as “cross-linked” (DDX54 (Homo sapiens, UniProt Q8TDD1); hits only).
For `EEF1D (Homo sapiens, UniProt P29692)`, interaction screen read “cross-linked” (EEF1A1 (Homo sapiens, UniProt P68104); hits only).
